Published values collected from several papers.
Protocols differ between the studies behind these lines. ± marks the error that the study gave.
Target: Apoptosis regulator Bcl-2 (BCL2, Homo sapiens, UniProt P10415)

CN(C)CC[C@H](CSc1ccccc1)Nc1ccc(S(=O)(=O)NC(=O)c2ccc3c(c2)CC[C@@H]2CN(Cc4ccccc4-c4ccc(Cl)cc4)CCN32)cc1[N+](=O)[O-]  IC50 (ligand displacement, FP): 131 nM
O=C(O)c1csc(C2COc3ccccc3O2)n1 (stereo not shown)  Ki (ligand displacement, FP): 300000 nM
CC[C@H](C)[C@H](NC(=O)[C@H](CCCNC(=N)N)NC(=O)[C@H](CO)NC(=O)[C@H](CC(C)C)NC(=O)[C@H](CCC(=O)O)NC(=O)[C@H](CCC(N)=O)NC(=O)[C@H](C)NC(=O)[C@@H](NC(=O)[C@H](Cc1c[nH]c2ccccc12)NC(=O)[C@@H](NC(=O)[C@H](CCC(=O)O)NC(=O)[C@@H]1CCCN1C(=O)[C@H](CCCNC(=N)N)NC(=O)c1ccc2c(c1)C(=O)OC21c2ccc(O)cc2Oc2cc(O)ccc21)[C@@H](C)CC)[C@@H](C)CC)C(=O)NCC(=O)N[C@@H](CC(=O)O)C(=O)N[C@@H](CCC(=O)O)C(=O)N[C@@H](Cc1ccccc1)C(=O)N[C@@H](CC(N)=O)C(=O)N[C@@H](C)C(=O)N[C@@H](Cc1ccc(O)cc1)C(=O)N[C@@H](Cc1ccc(O)cc1)C(=O)N[C@@H](C)C(=O)N[C@@H](CCCNC(=N)N)C(N)=O  Kd (fluorescence anisotropy): 7.2 ± 3.1 nM
CC[C@H](C)[C@H](NC(C)=O)C(=O)N[C@H](CC(=O)N[C@H](C(=O)N[C@@H](C)C(=O)N[C@@H](CCC(N)=O)C(=O)N[C@@H](CCC(=O)O)CC(=O)N[C@@H](CC(C)C)C(=O)N[C@@H](CCCNC(=N)N)C(=O)N[C@@H](CCCNC(=N)N)C(=O)N[C@H](CC(=O)NCC(=O)N[C@@H](CC(=O)O)C(=O)N[C@@H](CCC(=O)O)C(=O)N[C@H](CC(=O)N[C@@H](CC(N)=O)C(=O)N[C@@H](C)C(=O)N[C@@H](Cc1ccc(O)cc1)C(=O)N[C@H](CC(N)=O)Cc1ccc(O)cc1)Cc1ccccc1)[C@@H](C)CC)[C@@H](C)CC)Cc1c[nH]c2ccccc12  IC50 (competition SPR; pH 7.4, together with: BimBH3 peptide): 107 ± 8 nM
CC1=C(C2=C(C)C(=O)c3c(cc(O)c(O)c3C(C)C)C2=O)C(=O)c2cc(O)c(O)c(C(C)C)c2C1=O (racemic)  IC50 (ligand displacement, FP): 54 nM
CC[C@H](C)[C@H](NC(=O)[C@H](Cc1c[nH]c2ccccc12)NC(=O)[C@@H](NC(=O)[C@H](CCC(=O)O)NC(=O)[C@@H]1CCCN1C(=O)[C@H](CCCNC(=N)N)NC(C)=O)[C@@H](C)CC)C(=O)N[C@@H](C)C(=O)N[C@@H](CCC(N)=O)C(=O)N[C@@H](CCC(=O)O)C(=O)N[C@@H](CC(C)C)C(=O)N[C@@H](CCCNC(=N)N)C(=O)N[C@@H](CCCNC(=N)N)C(=O)N[C@@H](C)C(=O)NCC(=O)N[C@@H](CCCCN)C(=O)N[C@H](C(=O)N[C@@H](CC(C)C)C(=O)N[C@@H](CC(N)=O)C(=O)N[C@@H](C)C(=O)N[C@@H](Cc1ccc(O)cc1)C(=O)N[C@@H](Cc1ccc(O)cc1)C(=O)N[C@@H](C)C(=O)N[C@@H](CCCNC(=N)N)C(N)=O)C(C)C  Kd (binding, fluorescence polarization; pH 7.8, 37 °C): > 1000 nM
CC1=C(C2=C(C)C(=O)c3c(cc(O)c(O)c3Cc3ccccc3)C2=O)C(=O)c2cc(O)c(O)c(Cc3ccccc3)c2C1=O (racemic)  IC50 (ligand displacement, FP): 21 nM
CC[C@H](C)[C@H](NC(C)=O)C(=O)N[C@H](CC(=O)N[C@H](C(=O)N[C@@H](C)C(=O)N[C@@H](CCC(N)=O)C(=O)N[C@@H](CCC(=O)O)CC(=O)N[C@@H](CC(C)C)C(=O)N[C@@H](CCCNC(=N)N)C(=O)N[C@@H](CCCNC(=N)N)CC(=O)N[C@H](C(=O)NCC(=O)N[C@@H](CC(=O)O)C(=O)N[C@@H](CCC(=O)O)CC(=O)N[C@@H](Cc1ccccc1)C(=O)N[C@@H](CC(N)=O)C(=O)N[C@@H](C)CC(=O)N[C@@H](Cc1ccc(O)cc1)C(=O)N[C@@H](Cc1ccc(O)cc1)C(N)=O)[C@@H](C)CC)[C@@H](C)CC)Cc1c[nH]c2ccccc12  IC50 (competition SPR; pH 7.4, together with: BimBH3 peptide): 4890 ± 370 nM
C[N+](C)(CC[C@H](CSc1ccccc1)Nc1ccc(S(=O)(=O)NC(=O)c2ccc(N3CCN(Cc4ccccc4-c4ccc(Cl)cc4)CC3)cc2)cc1[N+](=O)[O-])CC(=O)[O-]  Ki (ligand displacement, FP): 500 nM
CC1(C)CCC(CN2CCN(c3ccc(C(=O)NS(=O)(=O)c4ccc(NCC5COCCO5)c([N+](=O)[O-])c4)c(N4CCCOc5nc6[nH]ccc6cc54)c3)CC2)=C(c2ccc(Cl)cc2)C1 (stereo not shown)  IC50 (ligand displacement): 0.25 nM

Repeated from above:
CC[C@H](C)[C@H](NC(=O)[C@H](CCCNC(=N)N)NC(=O)[C@H](CO)NC(=O)[C@H](CC(C)C)NC(=O)[C@H](CCC(=O)O)NC(=O)[C@H](CCC(N)=O)NC(=O)[C@H](C)NC(=O)[C@@H](NC(=O)[C@H](Cc1c[nH]c2ccccc12)NC(=O)[C@@H](NC(=O)[C@H](CCC(=O)O)NC(=O)[C@@H]1CCCN1C(=O)[C@H](CCCNC(=N)N)NC(=O)c1ccc2c(c1)C(=O)OC21c2ccc(O)cc2Oc2cc(O)ccc21)[C@@H](C)CC)[C@@H](C)CC)C(=O)NCC(=O)N[C@@H](CC(=O)O)C(=O)N[C@@H](CCC(=O)O)C(=O)N[C@@H](Cc1ccccc1)C(=O)N[C@@H](CC(N)=O)C(=O)N[C@@H](C)C(=O)N[C@@H](Cc1ccc(O)cc1)C(=O)N[C@@H](Cc1ccc(O)cc1)C(=O)N[C@@H](C)C(=O)N[C@@H](CCCNC(=N)N)C(N)=O  Kd (fluorescence anisotropy): 7.2 ± 3.1 nM
